# Published values of several laboratories.
# Compare with care: the assays were run in different laboratories. Numbers after ± are the reported error.
# Organism: Plasmodium falciparum
SMILES,assay,test system,conditions,EC50 [µM]
CCn1cc(-c2nc(C)no2)c(=O)c2cc(F)c(N3CCC(C)CC3)cc21,"parasite growth, [3H]hypoxanthine incorporation",7G8,72 h,0.008
Cc1nnc(-c2ccc3ccn(CC(=O)Nc4ccccc4Cl)c3c2)o1,"parasite viability, SYBR Green flow cytometry",Cam3.1 multidrug-resistant,48 h,0.381
COc1ccccc1N1CCN(c2cccc(F)c2C#N)CC1,"parasite growth, SYBR Green",3D7 DHODH E182D,72 h,> 12.5
Cc1ccc(N(c2ccc(NC(=O)CN(C)c3ccccc3N3CCCC3=O)cn2)C(C)C)cc1F,"parasite growth, LDH",3D7 population A,72 h,0.009
CC[C@H](C)[C@H](NC(=O)[C@H]([C@@H](C)CC)N(C)C(C)=O)C(=O)N[C@H](C(=O)N[C@@H](CC(C)C)C(=O)[C@@]1(C)CO1)[C@@H](C)O,,Dd2 β3 R190S resistant,,0.013 ± 0.0021
CC(C)N(c1ccc(Cl)c(F)c1)c1ccc(NC(=O)CN(C)c2ccccc2N2CCCC2=O)cn1,"parasite growth, LDH","3D7 population E, L562R mutant",72 h,0.017
c1csc(-c2nnc3sc(Cc4ccc5c(c4)CCCC5)nn23)c1,parasite growth,3D7-E182D,72 h,> 12.5
Cc1ccc(N(C)c2ccc(NC(=O)CN(C)c3ccccc3N3CCCC3=O)cc2)cc1,"parasite growth, LDH","3D7 population D, CSC1 L954F",72 h,0.167
CCc1nc2nc(C)cc(Nc3cc(C)cc(C)c3)n2n1,parasite growth,,,3.35 ± 2
CCOCC(=O)N1CCC[C@H](C(=O)NCc2nc(-c3ccc(C#N)cc3)cs2)C1,,Dd2 β5 S28L resistant,,0.083 ± 0.032
